# Experimental data from different studies.
# Every numbered part comes from another study and shows a few of its results, in no order. Changes are numbered by the printed parent chain.
# UniProt P63146, sequence (whole entry, looked up): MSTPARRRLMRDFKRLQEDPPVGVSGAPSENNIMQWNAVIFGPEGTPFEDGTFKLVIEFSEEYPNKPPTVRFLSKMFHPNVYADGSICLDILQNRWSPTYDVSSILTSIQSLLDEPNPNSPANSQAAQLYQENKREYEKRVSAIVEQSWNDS
# UniProt P68036, sequence (whole entry, looked up): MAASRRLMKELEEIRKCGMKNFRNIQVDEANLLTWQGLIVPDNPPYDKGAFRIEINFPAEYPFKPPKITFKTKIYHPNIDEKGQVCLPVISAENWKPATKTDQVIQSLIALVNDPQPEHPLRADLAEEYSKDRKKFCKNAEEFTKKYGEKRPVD
# UniProt P62837, sequence (whole entry, looked up): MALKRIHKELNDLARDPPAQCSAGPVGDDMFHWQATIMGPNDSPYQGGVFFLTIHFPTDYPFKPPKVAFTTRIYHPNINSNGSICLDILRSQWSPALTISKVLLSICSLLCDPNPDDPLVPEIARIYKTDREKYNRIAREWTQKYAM
# UniProt P51668, sequence (whole entry, looked up): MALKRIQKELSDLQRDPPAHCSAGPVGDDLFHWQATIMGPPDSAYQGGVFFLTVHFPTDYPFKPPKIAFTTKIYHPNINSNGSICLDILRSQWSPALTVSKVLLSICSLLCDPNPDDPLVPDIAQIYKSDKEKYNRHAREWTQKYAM
# UniProt Q9Y385, sequence (whole entry, looked up): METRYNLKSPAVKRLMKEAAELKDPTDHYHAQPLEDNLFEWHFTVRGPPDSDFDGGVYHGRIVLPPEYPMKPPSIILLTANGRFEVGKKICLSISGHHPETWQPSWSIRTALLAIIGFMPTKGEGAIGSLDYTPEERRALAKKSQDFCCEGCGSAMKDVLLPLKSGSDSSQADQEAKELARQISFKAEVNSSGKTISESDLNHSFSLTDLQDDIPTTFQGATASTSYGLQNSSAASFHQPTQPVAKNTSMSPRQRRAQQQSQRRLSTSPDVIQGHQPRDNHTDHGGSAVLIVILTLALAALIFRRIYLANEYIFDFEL
# UniProt Q8N2K1, sequence (whole entry, looked up): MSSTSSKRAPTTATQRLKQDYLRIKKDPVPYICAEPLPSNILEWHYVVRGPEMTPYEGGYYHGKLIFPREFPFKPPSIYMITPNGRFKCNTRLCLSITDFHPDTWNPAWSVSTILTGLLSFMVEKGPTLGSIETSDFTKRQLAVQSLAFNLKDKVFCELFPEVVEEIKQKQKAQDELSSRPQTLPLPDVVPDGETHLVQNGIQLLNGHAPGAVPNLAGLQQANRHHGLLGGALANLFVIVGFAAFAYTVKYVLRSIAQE
# UniProt Q9C0C9, sequence (whole entry, looked up): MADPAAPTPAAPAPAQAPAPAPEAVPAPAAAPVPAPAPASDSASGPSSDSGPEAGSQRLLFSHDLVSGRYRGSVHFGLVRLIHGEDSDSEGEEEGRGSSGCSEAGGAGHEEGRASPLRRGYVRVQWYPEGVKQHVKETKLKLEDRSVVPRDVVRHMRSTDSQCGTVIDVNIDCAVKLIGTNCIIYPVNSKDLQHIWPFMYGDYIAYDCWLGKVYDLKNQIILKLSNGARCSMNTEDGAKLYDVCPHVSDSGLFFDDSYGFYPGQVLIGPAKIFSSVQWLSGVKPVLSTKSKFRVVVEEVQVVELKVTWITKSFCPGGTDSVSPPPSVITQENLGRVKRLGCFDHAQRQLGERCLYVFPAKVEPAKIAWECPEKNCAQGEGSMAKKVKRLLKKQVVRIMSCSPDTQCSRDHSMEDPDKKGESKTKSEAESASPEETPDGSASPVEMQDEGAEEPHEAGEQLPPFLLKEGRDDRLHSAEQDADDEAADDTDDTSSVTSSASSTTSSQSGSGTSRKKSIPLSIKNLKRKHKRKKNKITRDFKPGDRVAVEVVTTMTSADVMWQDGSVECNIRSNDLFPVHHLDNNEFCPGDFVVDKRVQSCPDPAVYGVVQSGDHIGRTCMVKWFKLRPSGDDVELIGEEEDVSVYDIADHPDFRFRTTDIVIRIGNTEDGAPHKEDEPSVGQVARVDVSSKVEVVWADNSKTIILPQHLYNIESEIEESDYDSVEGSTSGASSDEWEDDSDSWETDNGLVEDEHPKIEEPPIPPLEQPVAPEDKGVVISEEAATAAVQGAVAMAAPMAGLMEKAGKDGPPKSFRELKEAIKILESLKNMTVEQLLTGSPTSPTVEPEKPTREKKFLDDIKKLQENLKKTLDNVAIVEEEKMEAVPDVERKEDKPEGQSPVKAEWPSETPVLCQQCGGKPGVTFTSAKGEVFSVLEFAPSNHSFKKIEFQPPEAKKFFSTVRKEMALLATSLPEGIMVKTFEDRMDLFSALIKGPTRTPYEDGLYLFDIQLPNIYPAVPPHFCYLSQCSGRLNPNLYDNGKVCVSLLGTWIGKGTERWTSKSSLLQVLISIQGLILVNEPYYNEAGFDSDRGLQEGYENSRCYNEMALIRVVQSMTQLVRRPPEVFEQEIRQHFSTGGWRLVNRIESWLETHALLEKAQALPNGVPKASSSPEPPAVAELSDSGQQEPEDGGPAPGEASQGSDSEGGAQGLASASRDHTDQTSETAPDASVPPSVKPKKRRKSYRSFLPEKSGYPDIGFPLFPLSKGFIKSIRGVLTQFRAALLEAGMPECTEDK
# UniProt Q9Y2X8, sequence (whole entry, looked up): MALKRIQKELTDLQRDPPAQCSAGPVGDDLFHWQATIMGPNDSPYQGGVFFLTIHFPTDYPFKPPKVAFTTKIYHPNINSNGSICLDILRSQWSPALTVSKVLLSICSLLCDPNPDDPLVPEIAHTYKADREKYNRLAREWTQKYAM
# UniProt Q7Z7E8, sequence (whole entry, looked up): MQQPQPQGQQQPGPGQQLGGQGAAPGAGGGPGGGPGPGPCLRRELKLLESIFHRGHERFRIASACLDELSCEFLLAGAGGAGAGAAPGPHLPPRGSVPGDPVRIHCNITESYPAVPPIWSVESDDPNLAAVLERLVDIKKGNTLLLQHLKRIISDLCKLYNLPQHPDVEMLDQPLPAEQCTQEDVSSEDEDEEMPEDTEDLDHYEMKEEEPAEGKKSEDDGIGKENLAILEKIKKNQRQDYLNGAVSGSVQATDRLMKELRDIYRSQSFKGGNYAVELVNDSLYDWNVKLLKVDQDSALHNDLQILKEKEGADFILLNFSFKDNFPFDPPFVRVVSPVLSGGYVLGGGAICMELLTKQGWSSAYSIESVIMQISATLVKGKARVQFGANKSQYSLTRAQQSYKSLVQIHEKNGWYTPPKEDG

# Sample 1 — target: DDIT3, bZIP domain (human); method: DHFR protein complementation; matrix: yeast; relative to: wild-type JUN-FOS pair; reading: higher = stronger binding
# Setting: single substitutions, most at no-binding floor
# Starting sequence: JUN, bZIP domain (human); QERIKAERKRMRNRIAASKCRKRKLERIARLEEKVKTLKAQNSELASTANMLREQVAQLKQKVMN; partner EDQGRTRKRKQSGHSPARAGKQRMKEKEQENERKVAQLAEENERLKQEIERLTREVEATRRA
Variant,binding fitness [natural log]
K34W,0.00026
Q41N,-0.44
R53K,0.00703
V35Q,-0.33
I28R,-0.0714
T48C,-0.0876
S43L,0.0709
T37I,0.107
M51R,0.098
E33T,-0.189
I28A,-0.00229
A29G,-0.165
A29K,-0.0533

# Sample 2 — target: CCND1, cyclin fold, Cln2 fusion (human); method: yeast growth competition, sequencing; matrix: yeast; setting: strong parent motif; relative to: not given; reading: higher = stronger binding
# Starting sequence: CDKN1A docking peptide (human); SKACRRLFGPVDS; partner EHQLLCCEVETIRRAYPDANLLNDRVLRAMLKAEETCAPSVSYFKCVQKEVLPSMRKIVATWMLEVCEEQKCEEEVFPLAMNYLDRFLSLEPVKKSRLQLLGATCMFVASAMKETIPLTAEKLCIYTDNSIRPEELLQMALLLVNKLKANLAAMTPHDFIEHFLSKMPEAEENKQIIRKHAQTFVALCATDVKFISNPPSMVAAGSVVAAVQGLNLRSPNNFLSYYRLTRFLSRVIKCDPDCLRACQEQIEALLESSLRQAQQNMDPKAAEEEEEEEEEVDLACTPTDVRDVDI
Variant,normalised enrichment score
SKAKRRLFGPVDS [C4K],0.535
SKACRRMFGPVDS [L7M],0.294
SKACRRLFAPVDS [G9A],3.56
SKACRRLRGPVDS [F8R],-0.101
SKQCRRLFGPVDS [A3Q],0.213
SKACRRLFGPVDA [S13A],2.77
SKNCRRLFGPVDS [A3N],-0.243
SKACRRLFGHVDS [P10H],1.25
SKACRRLFGPWDS [V11W],2.74
SKACRRLFGLVDS [P10L],0.705
SKACRRRFGPVDS [L7R],0.0341
SKACHRLFGPVDS [R5H],0.172
SKACRRLFGPVPS [D12P],2.19
SKACRRLFMPVDS [G9M],2.69
SKACRRLSGPVDS [F8S],0.419
SKACSRLFGPVDS [R5S],-0.0979

# Sample 3 — method: protein-binding microarray; molecule type: double-stranded DNA, one strand shown; matrix: in vitro; concentration: 250 nM; setting: 60-bp whole probe; added: salmon DNA 0.4 mg/ml; relative to: random background probes; reading: higher = stronger binding; constant ends, left off below: GCCTAGCAC … GTCTTGATTCGCTTGACGCTGCTG
# Target: Interferon regulatory factor 7, full length, phosphomimetic (IRF7, Homo sapiens, UniProt Q92985, residues 1-503, S101K/S471D/S472D/S475D/S476D/S477D/S483D/S484D/S487D)
# Construct (chain): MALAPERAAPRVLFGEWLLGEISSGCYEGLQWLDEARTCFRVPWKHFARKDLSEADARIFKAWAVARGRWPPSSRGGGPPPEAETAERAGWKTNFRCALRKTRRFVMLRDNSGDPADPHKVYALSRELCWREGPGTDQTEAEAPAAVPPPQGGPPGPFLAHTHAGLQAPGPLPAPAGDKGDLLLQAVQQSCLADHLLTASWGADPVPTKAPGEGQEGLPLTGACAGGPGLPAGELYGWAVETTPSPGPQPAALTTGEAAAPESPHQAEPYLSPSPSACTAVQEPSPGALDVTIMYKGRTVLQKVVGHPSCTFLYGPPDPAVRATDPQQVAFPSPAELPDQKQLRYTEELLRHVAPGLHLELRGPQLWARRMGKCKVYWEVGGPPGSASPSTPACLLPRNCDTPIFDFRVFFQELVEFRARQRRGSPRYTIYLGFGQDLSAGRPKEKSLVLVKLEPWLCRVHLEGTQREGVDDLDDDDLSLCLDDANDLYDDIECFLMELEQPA
Sequence,log fluorescence
GACGAACTGAGTATCGTGACGTGCTAG,-0.29 z-score
GACGGTTTCTTACTGCTGACGTGCTAG,0.893 z-score
GACGAACTGAGACTAGAGACGTGCTAG,0.241 z-score
TTTCCTTTGCCTCTGAGGCTGTGCTAG,2.1 z-score
TTAGATTCCAGTTTCGATAAGTGCTAG,6.51 z-score
TTAGGTCTGCTTATCCTTTAGTGCTAG,0.045 z-score
GACGGTTTCGGTTCCGCGACGTGCTAG,12.8 z-score
GACGATTTCGGGACGGGAGACGTGCTA,0.158 z-score
TTTCCTCTGTCATTTTCTCTGTGCTAG,2.66 z-score
GACGATATGAGACTGGAGACGTGCTAG,-0.415 z-score
TTGGATATCAGTATCGATTAGTGCTAG,0.464 z-score
TTAGGTCTCGGGTTTCGGTTAGTGCTA,7.57 z-score
TTAGCTATCGGTCTCGGTTAGTGCTAG,0.747 z-score
TCATTTTCATTGTTTTTCACTGTGCTA,1.6 z-score
GACGGTTTCGGTCTCGCGACGTGCTAG,7.86 z-score
TCAGTCATCGATTTCTTACTGTGCTAG,0.299 z-score

# Sample 4 — method: universal PBM; molecule type: double-stranded DNA, one strand shown; matrix: in vitro; concentration: not given; reading: higher = stronger binding
# Target: Sal-like protein 4, full length isoform B (SALL4, Homo sapiens, UniProt Q9UJQ4-2, residues 1-616)
# Setting: 8-mer, flanks averaged, mean of replicates
Sequence,E-score
AAGTTCTG,0.0474
ATCGTGGC,0.0313
CTCACAAA,0.137
GGCGCAAC,-0.273
ACCTCGTC,-0.0732
CGGCGATC,-0.27
AGCCGGAA,-0.185
CGAGATCC,-0.242
TAAGACAA,0.229
TACTCCAA,-0.00235
ACTTTGTC,0.0664
CACGAAGA,0.0176
TAGTCCGA,-0.0195
CCGAAGCG,-0.276
CACGCACC,-0.229
CTCCACTA,-0.159
AATCCTTG,0.0392
CTAAAGGA,-0.011
CGGTGTTA,-0.0265
TAGATCAA,0.131
CTTAGTAC,0.0725
ATCGTCGG,-0.136
ACCGAACC,-0.18
ACAACGCA,0.0444
AAGATTCG,0.0961

# Sample 5 — Sequence: B1 (DTX2 RING domain); method: yeast two-hybrid; matrix: yeast; setting: mostly zero background; relative to: not given; reading: higher = stronger interaction
# B1: DTX2 RING domain (UniProt Q86UW9); chain EELKVPPDEDCIICMEKLSTASGYSDVTDSKAIGSLAVGHLTKCSHAFHLLCLLAMYCNGNKDGSLQCPSCKTIYGEKTGTQ
target,lacZ reporter activity
UBE2B UBC core domain (UniProt P63146),0
UBE2J1 UBC core domain (UniProt Q9Y385),0
UBE2J2 UBC core domain (UniProt Q8N2K1),0
UBE2D2 UBC core domain (UniProt P62837),0
UBE2L3 UBC core domain (UniProt P68036),0
UBE2D4 UBC core domain (UniProt Q9Y2X8),0
UBE2D1 UBC core domain (UniProt P51668),0
UBE2Q1 UBC core domain (UniProt Q7Z7E8),0
UBE2O UBC core domain (UniProt Q9C0C9),0
BIRC6 UBC core domain (UniProt Q9NR09),0

# Sample 6 — method: DHFR PCA, deep sequencing; matrix: yeast; added: (+)-ABA 0 µM; relative to: wild-type fitted maximum; reading: higher = stronger binding
# Target: ABI1, truncated, D143A, DHFR fusion (Arabidopsis thaliana)
# Setting: methotrexate growth selection, single substitutions
# Starting sequence: PYL1, truncated, DHFR fusion (Arabidopsis thaliana); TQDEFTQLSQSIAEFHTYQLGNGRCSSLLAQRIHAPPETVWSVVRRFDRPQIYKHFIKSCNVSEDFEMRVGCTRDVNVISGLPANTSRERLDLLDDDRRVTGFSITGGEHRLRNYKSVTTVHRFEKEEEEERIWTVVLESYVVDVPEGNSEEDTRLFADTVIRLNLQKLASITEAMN
Variant,relative binding score [%]
S27R,-0.214
T173E,-6.43
D153A,-1.48
Q51D,20.7
I57Y,-9.37
D96H,-4.7
D97M,6.74
H110R,19.4
R88Y,9.72
R98F,-6.5
A158G,-0.326
N22M,16
Y141F,-5.16
V136F,-6.71
Q167V,5.4
R163M,28.6
L29V,29.5
T106H,0.191
E152I,-4.04

# Sample 7 — method: protein-binding microarray; molecule type: double-stranded DNA, one strand shown; matrix: in vitro; concentration: 0.8 µM; setting: whole 60-bp probe, no competitor; reading: higher = stronger binding
# Target: Centromere-binding protein 1, full length, N-terminal tag (CBF1, Saccharomyces cerevisiae, UniProt P17106, residues 1-351)
# UniProt P17106, sequence (whole entry, looked up): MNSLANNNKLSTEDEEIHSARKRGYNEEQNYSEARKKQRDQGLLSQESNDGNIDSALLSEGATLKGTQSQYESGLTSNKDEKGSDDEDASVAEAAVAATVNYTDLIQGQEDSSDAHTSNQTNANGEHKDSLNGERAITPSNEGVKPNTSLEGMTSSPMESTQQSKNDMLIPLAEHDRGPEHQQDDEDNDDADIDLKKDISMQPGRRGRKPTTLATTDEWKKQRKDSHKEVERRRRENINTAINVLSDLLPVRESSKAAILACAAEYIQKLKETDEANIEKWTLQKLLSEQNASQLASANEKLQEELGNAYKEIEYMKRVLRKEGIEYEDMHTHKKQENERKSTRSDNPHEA
Sequence,fluorescence intensity [a.u.]
CTATGAACGCTTTAGTACGGTCACCCCATCTACTTCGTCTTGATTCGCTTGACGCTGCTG,542
CTAAAAAACAGTCATCAGATGTTTGGGAAGCTGTTCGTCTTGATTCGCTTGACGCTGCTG,556
CTAGAAACTGCCCATCAGGAGATATTTTCGCACTTCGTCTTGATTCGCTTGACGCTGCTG,528
CTAGGATGGTGTTCACTCGTGCTAGCAAACGCGTTCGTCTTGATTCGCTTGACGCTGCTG,563
CTAATCGAAGCACGTGATCAGTTTTCCACATCCTTCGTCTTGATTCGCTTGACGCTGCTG,28100
GAAACGGTGCGTGTCAGCGTGGTCGGCGTACGTTAGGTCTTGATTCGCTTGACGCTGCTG,571
CTAATTTTTTCTTATTGCGTGACCGCAATGAAATTCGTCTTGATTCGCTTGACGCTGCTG,1200
GAACTAAAAAGATGTTTCGTGATTCTCCTAGTATAGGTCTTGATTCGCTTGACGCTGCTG,522
GAAATATAATATTTGCACGGGTTCTTTTTTGTGTAGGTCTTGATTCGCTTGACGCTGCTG,1010
GAAGAATGCCAGAATCATCAGCTGTTTCTCTTCTAGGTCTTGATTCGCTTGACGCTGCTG,552
CTAGTAGTGACTCATCTGACTATATTGCCGGTTTTCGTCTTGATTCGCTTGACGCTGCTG,556
GAAAAGTATTAATTGCCCACCACCTTCTTAAAATAGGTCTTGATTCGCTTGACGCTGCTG,509
CTAAGCAAACGGCAGCATGTGAAAAAACCCGTATTCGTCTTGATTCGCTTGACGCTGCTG,566
TGTACGAAGCTATATCACACTGTTATAGTAGTTAGGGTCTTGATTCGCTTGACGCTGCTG,504
GAAGTCAGGTTGATACATGTGCCTTTTATTCCATAGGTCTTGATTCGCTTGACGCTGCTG,777
CCTAACTACTATAGTCATCACAAATAGCTTCGTACAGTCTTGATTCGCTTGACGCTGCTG,523
CTATGCTTAGGAAGGTACGTGCGCCTCCTAACCTTCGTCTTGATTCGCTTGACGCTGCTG,491
CTACGGCGTTACTCGCATGTGCAGATATCAGCGTTCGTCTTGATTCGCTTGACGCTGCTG,673
GAAATATGTTGATGCCACGTAAATAATATGTGTTAGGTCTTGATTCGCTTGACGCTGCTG,500
CTACCCAGGCCCACCAACGTGCGCCCACCGCTATTCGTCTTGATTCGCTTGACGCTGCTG,469
GAACTCATATGAGTTCATGTGATATTTCATGTTTAGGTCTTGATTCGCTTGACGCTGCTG,980
TGTACGAAGCTATTGCACGGGTCTATAGTAGTTAGGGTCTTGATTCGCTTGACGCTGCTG,581
CTAGTCACTGTCAAACACGTTGCATTGATTAGATTCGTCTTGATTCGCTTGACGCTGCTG,576
